# Experimental data from different studies.
# Numbered parts are unrelated; each lists some results of a single study.

# Sample 1 — technique: protein binding microarray; form: double-stranded DNA, one strand shown; matrix: in vitro; concentration: not given; relative to: not given; reading: higher = stronger binding
# Target: Histone acetyltransferase KAT6A, both winged helices, GST fusion (KAT6A, Homo sapiens, UniProt Q92794, residues 1-181)
# Notes: 8-mer, flanks averaged, mean of 2 arrays, mostly near background
# Target sequence (chain): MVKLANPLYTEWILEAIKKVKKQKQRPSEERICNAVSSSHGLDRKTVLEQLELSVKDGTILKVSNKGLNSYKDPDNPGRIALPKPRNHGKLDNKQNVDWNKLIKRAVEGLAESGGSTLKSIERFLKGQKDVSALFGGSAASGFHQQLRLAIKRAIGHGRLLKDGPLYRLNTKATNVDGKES
Sequence,E-score
AGGAACAG,-0.251
AGCCATAA,-0.0225
ACAATTAA,-0.00837
CAACTAGA,-0.0473
CGCGCAGC,0.305
CGTACCCC,0.171
CGTCCGAC,0.244
AGCCAGAC,-0.0784
CGGCGAAC,0.315
CGCTGGCC,0.13
ACAAGATA,-0.101
CCATCCAG,-0.134
CAAAGCTG,-0.016
CCGCAGAC,0.165
AGGTGTTA,-0.239
CGAACGAC,-0.0165

# Sample 2 — Molecule: LQVDDDSGDPLNLVKA; technique: competitive growth deep sequencing; form: peptide; notes: peptide tiling library; reading: direction not given
target or system,test,test system,enrichment score
Saccharomyces cerevisiae,yeast growth,unfused Cln2,0.0471
human cyclin D2-Cln2 fusion,yeast growth,Saccharomyces cerevisiae,-1.17
human cyclin A2-Cln2 fusion,yeast growth,Saccharomyces cerevisiae,0.597
Saccharomyces cerevisiae,mating arrest growth,no Cln2 overexpression,-0.109

# Sample 3 — technique: protein-binding microarray; form: double-stranded DNA, one strand shown; matrix: in vitro; concentration: 250 nM; notes: 60-bp whole probe; added: salmon DNA 0.4 mg/ml; relative to: random background probes; reading: higher = stronger binding; constant ends, left off below: GCCTAGCAC … GTCTTGATTCGCTTGACGCTGCTG
# Target: Interferon regulatory factor 5, full length, phosphomimetic (IRF5, Homo sapiens, UniProt Q13568-2, residues 1-514, K96S/S451D/S453D/S456D/S462D)
Sequence,log fluorescence
GACGAACTGGGGTATCGCGACGTGCTA,-0.464 z-score
TTAGTTATCGACACTGGGTTAGTGCTA,2.41 z-score
TCATTTTTCAAGAAACAGACTGTGCTA,1.07 z-score
ATATATTCATATATATATGAGTGCTAG,0.959 z-score
TCATTTTTTTTTTCTGAACTGTGCTAG,1.53 z-score
TTAGGTTTACTTATCCTTTAGTGCTAG,-0.0686 z-score
TCATCTCTACTTGTGTCACTGTGCTAG,0.488 z-score
CTAGGTCTCCTACTGCTTTAGTGCTAG,-0.495 z-score
TTAGATTTCAGTTTCGATGAGTGCTAG,10 z-score
TTAGATTTCAATATCGATTAGTGCTAG,6.29 z-score
GACGGTACCCTTATCCTGACGTGCTAG,-0.177 z-score
AACATACTGATTTCCACTTTGTGCTAG,0.674 z-score
TTAGGTATCGGGTATCGGTTCGTGCTA,5.96 z-score
GACGGTAGCCTACTGCTGACGTGCTAG,-0.568 z-score
GACGATCTCAATTTCGAGACGTGCTAG,1.83 z-score
GACGGTTTCGGCTTCGGGACGTGCTAG,6.78 z-score
TTAGATCTCAGACTCGATTAGTGCTAG,-0.315 z-score

# Sample 4 — technique: universal PBM; form: double-stranded DNA, one strand shown; matrix: in vitro; concentration: not given; reading: higher = stronger binding
# Target: Sal-like protein 4, full length isoform B (SALL4, Homo sapiens, UniProt Q9UJQ4-2, residues 1-616)
# Notes: 8-mer, flanks averaged, mean of replicates
Sequence,E-score
AATTAATC,0.276
AACCATGT,0.0183
CGAGCATA,0.0683
GGCGTACC,-0.245
TCGGCCGA,-0.0936
ACACAACA,0.187
ACACACCT,0.104
AGGGGTTG,0.0156
ACGGAGCG,-0.272
CCGGTGAA,-0.116
TCGAGACA,-0.0329
AATGGGCG,-0.192
AGTGACCA,-0.0577
GAGGCCTA,-0.256
ACTATGAG,0.0871
GGATTAAA,0.0979
CGATTTGC,-0.0687
GCTCCTGA,-0.296
CTCTGCAA,0.0461
TAGACTGA,0.0685
ATGTCCAA,0.111

# Repeated from above (sample 4):
Sequence,E-score
AATTAATC,0.276
AACCATGT,0.0183
CGAGCATA,0.0683
GGCGTACC,-0.245
TCGGCCGA,-0.0936
ACACAACA,0.187
ACACACCT,0.104
AGGGGTTG,0.0156
ACGGAGCG,-0.272
